{"data": "Assay results of several laboratories", "note": "Parts stem from different laboratories: compare values within a part only. Substitutions count along the parent as printed.", "sequence of UniProt P52564 (whole entry, looked up)": "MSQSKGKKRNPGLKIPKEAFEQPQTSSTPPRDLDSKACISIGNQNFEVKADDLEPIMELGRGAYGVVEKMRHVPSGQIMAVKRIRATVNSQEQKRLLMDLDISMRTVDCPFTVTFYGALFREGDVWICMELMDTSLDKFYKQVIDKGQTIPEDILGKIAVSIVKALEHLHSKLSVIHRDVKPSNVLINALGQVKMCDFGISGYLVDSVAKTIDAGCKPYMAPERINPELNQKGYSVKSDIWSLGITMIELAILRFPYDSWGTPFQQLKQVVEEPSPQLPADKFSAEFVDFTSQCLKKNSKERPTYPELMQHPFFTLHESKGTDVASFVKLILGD"}
{"data": "Study 1", "target": "MAFG, bZIP domain (human)", "method": "DHFR protein complementation", "medium": "yeast", "setting": "single substitutions, most at no-binding floor", "reference": "wild-type JUN-FOS pair", "reading": "higher = stronger binding", "starting sequence": "JUN, bZIP domain (human); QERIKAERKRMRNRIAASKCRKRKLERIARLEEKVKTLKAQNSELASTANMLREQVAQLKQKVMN; partner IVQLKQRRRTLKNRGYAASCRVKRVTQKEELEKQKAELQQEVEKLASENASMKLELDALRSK"}
{"Substitution": "K39T", "binding fitness [natural log]": -1.33}
{"Substitution": "V35Y", "binding fitness [natural log]": -1.46}
{"Substitution": "K39R", "binding fitness [natural log]": -1.4}
{"Substitution": "E32D", "binding fitness [natural log]": -1.48}
{"Substitution": "K39G", "binding fitness [natural log]": -1.45}
{"Substitution": "Q58P", "binding fitness [natural log]": -1.54}
{"Substitution": "E44W", "binding fitness [natural log]": -1.45}
{"Substitution": "V56M", "binding fitness [natural log]": -1.48}
{"data": "Study 2", "target": "Sal-like protein 4, full length isoform B (SALL4, Homo sapiens, UniProt Q9UJQ4-2, residues 1-616)", "method": "universal PBM", "form": "double-stranded DNA, one strand shown", "medium": "in vitro", "concentration": "not given", "setting": "8-mer, flanks averaged, mean of replicates", "reading": "higher = stronger binding"}
{"Strand": "TGTGCTAA", "E-score": 0.0221}
{"Strand": "ATAAGACG", "E-score": 0.244}
{"Strand": "ATTGCGCG", "E-score": 0.0245}
{"Strand": "GGACGGCC", "E-score": -0.398}
{"Strand": "ACAACAGA", "E-score": 0.076}
{"Strand": "AAGACGCT", "E-score": -0.0708}
{"Strand": "ACAAAGAG", "E-score": 0.00467}
{"Strand": "TACTGTAA", "E-score": 0.197}
{"data": "Study 3", "target": "CCNE1, cyclin fold, Cln2 fusion (human)", "method": "yeast growth competition, sequencing", "medium": "yeast", "setting": "strong parent motif", "reference": "not given", "reading": "higher = stronger binding", "starting sequence": "RBL1 docking peptide (human); GSAKRRLFGEDPP; partner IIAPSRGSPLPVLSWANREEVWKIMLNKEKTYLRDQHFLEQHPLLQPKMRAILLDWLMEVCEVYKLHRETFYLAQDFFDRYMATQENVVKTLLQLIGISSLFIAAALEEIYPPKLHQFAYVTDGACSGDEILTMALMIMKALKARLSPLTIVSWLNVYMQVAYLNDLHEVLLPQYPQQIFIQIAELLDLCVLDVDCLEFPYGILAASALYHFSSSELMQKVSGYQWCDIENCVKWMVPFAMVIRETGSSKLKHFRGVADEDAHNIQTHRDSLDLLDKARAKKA"}
{"Substitution": "GSAKRRLFGEDPA [P13A]", "normalised enrichment score": 6.2}
{"Substitution": "GSTKRRLFGEDPP [A3T]", "normalised enrichment score": 4.33}
{"Substitution": "KSAKRRLFGEDPP [G1K]", "normalised enrichment score": 6.14}
{"Substitution": "GSAKRRLFSEDPP [G9S]", "normalised enrichment score": 7.2}
{"Substitution": "GSAKRRYFGEDPP [L7Y]", "normalised enrichment score": 0.028}
{"Substitution": "QSAKRRLFGEDPP [G1Q]", "normalised enrichment score": 6.55}
{"Substitution": "GSAKRVLFGEDPP [R6V]", "normalised enrichment score": 5.09}
{"Substitution": "GSAKRRLAGEDPP [F8A]", "normalised enrichment score": 0.323}
{"data": "Single results of other studies"}
{"SMILES": "CN1CCN(c2ccc3nc(-c4c(N)c5c(F)cccc5[nH]c4=O)[nH]c3c2)CC1", "target": "Dual specificity mitogen-activated protein kinase kinase 6 (MAP2K6, Homo sapiens, UniProt P52564)", "assay": "enzyme activity, inhibitor", "setting": "0.5 µM", "scale": "reference: control", "quantity": "remaining activity", "value": "82.6%"}
{"note": "Repeated from above (study 1):"}
{"Substitution": "K39T", "binding fitness [natural log]": -1.33}
{"Substitution": "E44W", "binding fitness [natural log]": -1.45}
{"Substitution": "V56M", "binding fitness [natural log]": -1.48}
